# Results pooled from the literature.
# Each line is one published result; not all experiments were run side by side. Several values in a cell are separate wells, animals, samples, runs or records. ± marks the error that the study gave.
SMILES,target or system,assay,system,conditions,how to read,endpoint,value
O=C(O)CNC(=O)Cc1ccccc1,,,"ventricular cardiomyocytes, C57BL/6 mouse","dose not given, 0.168 s",,sarcomere length,1.64 µm
C=CCn1c(=O)c2cnc(Nc3ccc(N4CCN(C)CC4)cc3)nc2n1-c1ccc2c(n1)[C@@](O)(CC)CC2,,,"MCF7 xenograft, BALB/c nude mice","oral, 80 mg/kg once daily x 22, day 28",,tumour volume difference,-92.4 ± 6.4 mm3
Cc1ccc(C)c(OCCCC(C)(C)C(=O)O)c1,Nedd8-cullin1 interaction,"neddylation, AlphaScreen",,100 µM,,inhibition,18.6%
Cc1cc(Nc2ccc(S(F)(F)(F)(F)F)cc2)n2nc(C(C)(F)F)nc2n1,,item: dihydroorotate,"female CD-1 mice, blood","oral, 300 mg/kg daily, 8 h after dose 10",,DHO concentration,1.94 ± 0.204 µM
CCO[C@H]1CCN(Cc2c(OC)cc(C)c3[nH]ccc23)[C@H](c2ccc(C(=O)O)cc2)C1,,,"PNH patients, blood","oral, 50 mg then 200 mg, week 12, mean percent change",reference: baseline,C3d-positive type III RBCs,-84.6%
Cc1ccccc1C(=O)Nc1ccc(C(=O)N2CCCC(O)c3cc(Cl)ccc32)c(C)c1 (stereo not shown),Nedd8-cullin1 interaction,"neddylation, AlphaScreen",,100 µM,,inhibition,25.6%
NC(=O)c1cnc2[nH]ccc2c1N[C@@H]1[C@@H]2CC3C[C@H]1C[C@@](O)(C3)C2,,"CD4+ naive T cells, flow cytometry","Japanese humans, peripheral blood",200 mg single dose,reference: baseline,percent change,2.37%
CN[C@@H]1COc2c(S(=O)(=O)NC(=O)Nc3c4c(cc5c3CCC5)CCC4)cnn2C1,,item: IL-1β,"human participants, whole blood ex vivo","450 mg single dose, 1 h, with: LPS/ATP",reference: baseline,inhibition,99%
COc1nnc2ccc(N3CCC(c4ccc(OCCN5CCN(C)C(=O)[C@H]5C)cc4)CC3)nn12,,,human patients,"20 mg twice daily, 1.5-fold above baseline",,time above HEXIM1 threshold,10.2 h
CC[C@H](CO)Nc1nc(NCc2ccc(-c3ccccn3)cc2)c2ncn(C(C)C)c2n1,,,"NOD scid gamma mouse, IMR-32 xenograft, tumour","ip, dose not given, daily dosing",,Mcl-1 protein level,decreased
O=C(COc1ccc(Cl)cc1)NC12CC(c3nnc([C@H]4C[C@@H](OC(F)(F)F)C4)o3)(C1)C2,,,"healthy human, PBMC","oral, 200 mg single dose, day 1, 4 h post-dose, median, with: sodium arsenite ex vivo",reference: baseline,ATF4 protein change,-48.9%
N#CCC1CCN(c2nc(Nc3ccc(N4CCC(O)CC4)cc3)c3c(=O)[nH]ncc3n2)CC1,,"Olink multiplex, item: CDCP1","human, serum","20 mg, day 29",reference: baseline,fold change from baseline,-1.1
N#Cc1ccc2c(-c3ccncc3)c(-c3ccc(F)cc3)nn2c1,,"kinase binding, competitor, MIB/MS competition, item: SSK2",Candida albicans cell lysate,100 nM,reference: DMSO,log2 fold change,0.0292
C[C@@H](O)CCOC(=O)C[C@@H](C)O,,item: C18:2 acylcarnitine,"human, plasma","60 min, log2-transformed values",,metabolite level,-4.08 ± 0.52 µmol/L
C[C@H]1C[C@H]2CSC(N)=N[C@@]2(c2nc(NC(=O)c3ccc(OC(F)F)cn3)cs2)CO1,,item: Aβ1-40,"healthy adults, plasma","125 mg once daily, day 10",reference: placebo,percent change from baseline,-86.8%
N#Cc1ccc2c(c1)[C@H]1CCCN(C(=O)c3ccc4[nH]cnc4c3)[C@H]1C2,,item: fasting plasma insulin,"human, Phase II trial","oral, 80 mg once daily, day 28, adjusted mean, SE",,change from baseline,12.6 pmol/L
OC(CCN1CCCCC1)(c1ccccc1)C1CC2C=CC1C2 (stereo not shown),,resting-state EEG,healthy elderly humans,"oral, 4 mg, eyes open, LS mean",,EEG Beta1-power Pz-O1,3.5 µV²
C[C@@H](NC(=O)N1C(=O)[C@H](Cc2ccnc(N)c2)[C@H]1C(=O)O)C1CCCCC1,,,human,"iv infusion, 1.0 mg/kg/h, 24 h, unit not given",reference: baseline,ACT Emax,1.13
CC(C)[C@H](C(=O)Nc1ccc(C(=O)NO)cc1)c1ccccc1,,volumetric MRI,"human, right vagal schwannoma","dose not given, end of treatment, day 835",,annual tumour growth rate,22.4 %/year
N#Cc1ccn2c(-c3ccncc3)c(-c3ccc(F)cc3)nc2c1,,"kinase binding, competitor, MIB/MS competition, item: TOR1",Candida albicans cell lysate,1 µM,reference: DMSO,log2 fold change,0.0413
CC(=O)NCC(=O)NCC(=O)N[C@H](C(=O)N[C@@H](Cc1ccc(O)cc1)C(=O)N[C@@H](CO)C(=O)N[C@H]1CSSC[C@@H](C(=O)N[C@@H](CCCNC(=N)N)C(=O)N2CCC[C@H]2C(=O)N[C@@H](CCC(N)=O)C(=O)N[C@@H](CCCNC(=N)N)C(=O)NCC(=O)NCCC(=O)N[C@@H](CCCCNC(=O)CN(CC(=O)NCCCC[C@H](NC(=O)CCNC(=O)CNC(=O)[C@H](CCCNC(=N)N)NC(=O)[C@H](CCC(N)=O)NC(=O)[C@@H]2CCCN2C(=O)[C@H](CCCNC(=N)N)NC(=O)[C@@H]2CSSC[C@H](NC(=O)[C@H](CO)NC(=O)[C@H](Cc3ccc(O)cc3)NC(=O)[C@@H](NC(=O)CNC(=O)CNC(C)=O)[C@@H](C)O)C(=O)N[C@@H](Cc3c[nH]cn3)C(=O)N[C@@H](Cc3ccccc3)C(=O)NCC(=O)N[C@@H](C)C(=O)N[C@@H](CC(C)C)C(=O)N[C@@H]([C@@H](C)O)C(=O)N[C@@H](Cc3c[nH]c4ccccc34)C(=O)N[C@@H](C(C)C)C(=O)N2)C(N)=O)C(=O)CCN)C(N)=O)NC(=O)[C@H](C(C)C)NC(=O)[C@H](Cc2c[nH]c3ccccc23)NC(=O)[C@H]([C@@H](C)O)NC(=O)[C@H](CC(C)C)NC(=O)[C@H](C)NC(=O)CNC(=O)[C@H](Cc2ccccc2)NC(=O)[C@H](Cc2c[nH]cn2)NC1=O)[C@@H](C)O,,,healthy BALB/c mice,"subcutaneous, 0.16 mg/kg, 4 d, single dose",,haematocrit,47.1%
Cc1n[nH]c2ccc(-c3cc(OC[C@@H](N)Cc4ccccc4)cnc3-c3ccoc3)cc12,,"kinase binding, competitor, MIB/MS competition, item: YCK2",Candida albicans cell lysate,10 µM,reference: DMSO,log2 fold change,-3.65
N#Cc1ccc2c(c1)[C@H]1CCCN(C(=O)c3ccc4[nH]cnc4c3)[C@H]1C2,,,"human, plasma","20 mg, day 15, 360 h",reference: placebo and baseline,change in HOMA-IR,-41.4%
Cc1c(C)n(Cc2cccc(OC(C)(C)C(=O)O)c2)c2ccc(C(=O)N[C@@H](C)c3ccc(C(C)(C)C)cc3)cc12,,indirect calorimetry,lean mice,"dose not given, average over 72 h, end of treatment",,VO2,73.2 ± 5.94 mL/min/kg
NCC(=O)Nc1cncc(-c2nn3c(=O)cc(N4CCNCC4)nc3s2)c1,,"ADP-induced platelet aggregation, light transmission aggregometry","human, stable CAD on aspirin, ex vivo platelets","subcutaneous, 0.05 mg/kg, 90 min post-dose, mean value, with: ADP 20 µM",,inhibition,35%
O=S(=O)(NCCNC/C=C/c1ccc(Br)cc1)c1cccc2cnccc12,,,mouse zygotes,"20 µM, 24 h post-hCG",,embryos reaching blastocyst,0%
O=C1Nc2cc3[nH]nc(-c4ccncc4)c3cc2CN1Cc1ccccc1,,RECIST v1.1,"human, relapsed or refractory advanced solid tumours","intravenous, 0.45 mg/kg, pooled schedules",,"stable disease, best response",0%
O=P(O)(O)C(Cl)(Cl)P(=O)(O)O,,"immunostaining, item: F4/80","mouse, subarachnoid haemorrhage, meningeal perivascular",23000 µg/mL,,macrophage density,5.84 cells/mm²
CC1(C)CCC(CN2CCN(c3ccc(C(=O)NS(=O)(=O)c4ccc(NCC5CCOCC5)c([N+](=O)[O-])c4)c(Oc4cnc5[nH]ccc5c4)c3)CC2)=C(c2ccc(Cl)cc2)C1,,"cell killing, flow cytometry PI exclusion","canine blood CD21+ B cells, dog 34",24 h,,EC50,1110 nM
Cc1oncc1C(=O)Nc1ccc(C(F)(F)F)cc1,,item: dihydroorotate,"female CD-1 mice, blood","oral, 10 mg/kg daily, 8 h after dose 3, 10-day dosing",,DHO concentration,5.23 ± 1.53 µM
CCCCC1(CCCC)CN(c2ccccc2)c2cc(SC)c(OCC(=O)N[C@@H](C(=O)NCC(=O)O)c3ccccc3)cc2S(=O)(=O)C1,,item: 7α-hydroxy-4-cholesten-3-one,"human, plasma","5 mg once daily, day 9",,plasma C4,72.6 ng/mL
C[C@@H]1CCC[C@H](n2cnc(-c3cc(Cl)ccc3-n3cc(Cl)nn3)cc2=O)c2cc(ccn2)-c2c(cnn2C(F)F)NC1=O,,,rat plasma,"IC2.5× aPTT, Actin FS reagent",,concentration for aPTT prolongation,> 40 µM
COc1ccccc1[C@H](Cn1c(=O)n(C(C)(C)C(=O)O)c(=O)c2c(C)c(-c3ncco3)sc21)OC1CCOCC1,,"[1-13C]acetate infusion, isotopomer analysis","overweight or obese healthy men, plasma VLDL-TG palmitate","oral, 50 mg single dose, 10 h post-dose, with: oral fructose",,fractional hepatic DNL,21.7 % new palmitate
O=C1N[C@H](c2cncc(C#Cc3ccccc3)c2)[C@@H](c2ccccc2Cl)O1,,SV2A PET,"dKI mice, hippocampus","dose not given, 1 month",reference: baseline,synaptic density increase,17%
C[C@]1(c2nc3c(C(N)=O)cccc3[nH]2)CCCN1,,item: poly(ADP-ribose),"cancer patients, PBMC","1.2 mg/m2/day, all but highest dose, with: topotecan",,PAR reduction,> 50%
COc1ccc(-c2cncc(N[C@@H](C)c3cccc(NC(=O)c4cncc(C)c4)c3)n2)cc1OC,,item: rno-miR-144-3p,"rat SU5416/hypoxia model, lung","dose not given, unit not given",reference: SU5416/hypoxia vehicle,delta delta Ct,0.668
c1ccc(-c2n[nH]cc2-c2ccnc3ccccc23)nc1,,"kinase binding, competitor, MIB/MS competition, item: YCK2",Candida albicans cell lysate,100 nM,reference: DMSO,log2 fold change,0.831
CO[C@H]1CC[C@H](N2C(=O)CNc3ncc(-c4ccc(C(C)(C)O)nc4)nc32)CC1,,flow cytometry,"stimulated B cells, human, blood","30 mg single dose, 1.5 h, median",reference: baseline,pS6RP change from baseline,-64.1%
Cc1cnc(Nc2ccc(OCCOc3ccc(/N=N/c4ccc(C(=O)NCCC(=O)O)cc4)cc3C(=O)O)cc2)nc1Nc1cccc(S(=O)(=O)NC(C)(C)C)c1,,,"mice, DSS-induced colitis",10 mg/kg,,disease activity index,0
C[C@H](Oc1ccc(Br)cc1-c1ccon1)C(=O)O,,last response latency,"human, tibialis anterior muscle","100 mg, 15 Hz, SAD",,difference from placebo,-0.895%
CCCCCN1C[C@H](O)[C@@H](O)[C@H](O)[C@@H]1CO,,,Hexb-/- mouse,30 mg/kg/day,,delay of motor symptom onset,≥ 2 week
Cn1cc(Nc2nccc(-c3ccc4c(c3)CN(C3COC3)CC[C@H]4NC(=O)c3cn(C(C)(C)C)nn3)n2)cn1,,item: Cardiac Hypertrophy Signaling,"splenic B cells, mouse","in vivo, 30 mg/kg, IgD-activated B cells","reference: vehicle, positive = activation",pathway activation z-score,4.49
O=C(OC(C(F)(F)F)C(F)(F)F)N1CCN(Cc2cccc(Oc3ccccc3)c2)CC1,,PET blocking study,"rhesus monkey, brain THA","0.3 mg/kg, compound pretreatment, with: [18F]T-401 tracer",,k3,1.26 min⁻¹
Cc1ccc([C@@H]2O[C@H](CO)[C@@H](O)[C@H](O)[C@H]2O)cc1Cc1ccc(-c2ccc(F)cc2)s1,,,Japanese type 2 diabetes patients,"100 mg, day 16",reference: day 0,change in 24-h mean serum insulin,-2.9 µU/mL
CC(C)NCC(O)c1ccc(O)c(O)c1 (stereo not shown),,,"ventricular cardiomyocytes, C57BL/6 mouse","dose not given, 0.684 s",,sarcomere length,1.72 µm
Cc1sc2c(c1C)C(c1ccc(Cl)cc1)=N[C@@H](CC(=O)NCCCCCCCCNC(=O)COc1cccc3c1C(=O)N(C1CCC(=O)NC1=O)C3=O)c1nnc(C)n1-2 (stereo partly shown),,flow cytometry,"4T1 tumour-bearing mice, spleen",dose not given,,CD80+ CD86+ dendritic cells,28.3% and 28.8% and 26.5% and 27.9%

# Excerpt of the above:
SMILES,target or system,assay,system,conditions,how to read,endpoint,value
Cc1c(C)n(Cc2cccc(OC(C)(C)C(=O)O)c2)c2ccc(C(=O)N[C@@H](C)c3ccc(C(C)(C)C)cc3)cc12,,indirect calorimetry,lean mice,"dose not given, average over 72 h, end of treatment",,VO2,73.2 ± 5.94 mL/min/kg
NCC(=O)Nc1cncc(-c2nn3c(=O)cc(N4CCNCC4)nc3s2)c1,,"ADP-induced platelet aggregation, light transmission aggregometry","human, stable CAD on aspirin, ex vivo platelets","subcutaneous, 0.05 mg/kg, 90 min post-dose, mean value, with: ADP 20 µM",,inhibition,35%
O=S(=O)(NCCNC/C=C/c1ccc(Br)cc1)c1cccc2cnccc12,,,mouse zygotes,"20 µM, 24 h post-hCG",,embryos reaching blastocyst,0%
O=C1Nc2cc3[nH]nc(-c4ccncc4)c3cc2CN1Cc1ccccc1,,RECIST v1.1,"human, relapsed or refractory advanced solid tumours","intravenous, 0.45 mg/kg, pooled schedules",,"stable disease, best response",0%
